Measured values gathered from unrelated publications.
Each line is one published result; not all experiments were run side by side. “And” joins repeats or separate records; there may be more than shown.
Target: Calcium/calmodulin-dependent protein kinase type II subunit gamma (CAMK2G, Homo sapiens, UniProt Q13555)
Sequence of UniProt Q13555 (whole entry, unmodified, looked up): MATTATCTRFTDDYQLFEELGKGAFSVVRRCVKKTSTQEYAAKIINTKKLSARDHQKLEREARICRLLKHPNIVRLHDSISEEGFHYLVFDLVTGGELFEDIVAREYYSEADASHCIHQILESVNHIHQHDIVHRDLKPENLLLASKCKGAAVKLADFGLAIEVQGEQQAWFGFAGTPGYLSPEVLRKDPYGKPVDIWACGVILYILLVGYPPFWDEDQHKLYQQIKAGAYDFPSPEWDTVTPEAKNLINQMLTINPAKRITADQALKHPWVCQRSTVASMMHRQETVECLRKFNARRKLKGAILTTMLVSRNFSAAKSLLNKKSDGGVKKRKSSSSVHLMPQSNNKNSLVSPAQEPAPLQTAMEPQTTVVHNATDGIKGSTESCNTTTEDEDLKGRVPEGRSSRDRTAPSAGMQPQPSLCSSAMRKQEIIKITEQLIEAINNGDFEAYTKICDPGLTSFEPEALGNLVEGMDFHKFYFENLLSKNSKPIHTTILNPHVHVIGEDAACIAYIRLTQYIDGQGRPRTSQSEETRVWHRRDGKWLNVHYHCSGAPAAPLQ

SMILES | assay | test system | setting | scale | measurement | result
C=CC(=O)Nc1cccc(-c2cnc3[nH]cc(C(=O)NC(C)(C)C)c3n2)c1 | enzyme activity, inhibitor | – | 0.1 µM | – | inhibition | -1%
COc1cc(Nc2nc(C)cc(-c3cnn4nc(OC)ccc34)n2)cc(C(F)(F)F)c1 | inhibitor | – | 1 µM | relative to: control | remaining activity | 90%
CN1CCN(Cc2ccc(-c3ccc(CO[C@H]4CCC[C@@H]4NC(=O)c4cc(-c5cnn(C)c5)cnc4N)cc3)cc2)CC1 | enzyme activity, inhibitor | – | 0.1 µM | – | inhibition | 6%
Cc1cccc(O[C@H]2CCC[C@@H](C(C)CNCc3ccncc3)C2)c1 (relative stereo) | cell-free assay | – | 1 µM | – | inhibition | -10%
CNC(=O)C1CCN(c2cc(C)c(F)cc2NC(=O)c2ccc(-c3cc(O)ccc3C)c(C)c2)CC1 | binding, competition with immobilised ligand | – | 1 µM | – | remaining binding | 93%
CCN1CCN(Cc2ccc(C(=O)Nc3ccc(C)c(NCc4cnc5[nH]ccc5c4OC)c3)cc2C(F)(F)F)CC1 | binding, competition with immobilised ligand | – | 1 µM | – | remaining binding | 100%
COc1c(OCCCN2CCOCC2)ccc2c1N=C(NC(=O)c1cnc(N)nc1)N1CCN=C21 | kinase activity, inhibitor | – | 1 µM | relative to: untreated control | remaining activity | 93%
NC(=O)C[C@H]1CCc2sc3ncnc(O[C@H]4CC[C@H](N5CCOCC5)CC4)c3c21 | enzyme activity, inhibitor | – | 10 µM | – | inhibition | -5%
N[C@H]1CC[C@H](Nc2nccc(-c3cccnc3Oc3ccc(NC(=O)NC4CC4)c4ccccc34)n2)CC1 | kinobead competition pulldown | HEK293/HCT116 lysate mixture | 10 µM, 1 h, 4 °C | lower = stronger competition | log2 LFQ intensity | 30 and 29.9 and 29.8
CN1CC[C@@H](COc2cnc(C#N)cc2-c2ccn3nc(NC(=O)C4CC4)cc3c2)C1 | enzyme activity, inhibitor | – | 1 µM | – | inhibition | 10%
C=CC(=O)N1CCc2ccc(-n3c(=O)ccc4cnc5ccc(-c6cnn(C)c6)cc5c43)cc21 | KINOMEscan | – | 1 µM | relative to: DMSO control | remaining binding | 100%
O=C=[N][Ru-4]123([n]4c5ccc(O)cc5c5c6c(c7cc(F)c[n+]1c7c54)C(=O)NC6=O)[S+]1CC[S+]2CC[S+]3CC1 (stereo not drawn) | enzyme activity | – | 100 nM, human enzyme, added: 10 µM ATP | relative to: untreated | remaining activity | 29%
Cc1cnc2nc1Nc1cccc(c1)COC/C=C/COCc1cc(ccc1OCCN1CCOCC1)N2 | binding | – | 0.1 µM | – | remaining binding | 100%
Nc1ncc2c(n1)-c1c([nH]c3ccc(C4=CCOCC4)cc13)CCC2 | binding, competition with immobilised ligand | – | 1 µM | – | remaining binding | 100%
C=CC(=O)N1CCCC(n2c(=O)c3ncccc3n(Cc3ccc(Oc4ccccc4)cc3)c2=O)C1 (stereo not drawn) | cell-free assay, competition with immobilised ligand | – | 1 µM | – | remaining binding | 100%

Repeated from above:
SMILES | assay | test system | setting | scale | measurement | result
CN1CC[C@@H](COc2cnc(C#N)cc2-c2ccn3nc(NC(=O)C4CC4)cc3c2)C1 | enzyme activity, inhibitor | – | 1 µM | – | inhibition | 10%
